{"data": "Experimental data gathered from unrelated publications", "organism": "Salmonella enterica", "note": "Each line is one published result; not all experiments were run side by side. Numbers after ± are the reported error."}
{"SMILES": "CC[C@H](C)[C@H](NC(=O)[C@H](CCCCN)NC(=O)[C@H](CCCCN)NC(=O)[C@H](CC(C)C)NC(=O)[C@H](CCCCN)NC(=O)[C@H](CCC(=O)O)NC(=O)[C@H](CCCCN)NC(=O)[C@@H](NC(=O)[C@H](CCCCN)NC(=O)[C@H](CC(N)=O)NC(=O)[C@H](CCCNC(=N)N)NC(=O)[C@H](Cc1ccccc1)NC(=O)[C@H](CCCCN)NC(=O)[C@H](CCCNC(=N)N)NC(=O)[C@H](CC(C)C)NC(=O)[C@H](CCCNC(=N)N)NC(=O)[C@H](CCCCN)NC(=O)[C@H](CCCNC(=N)N)NC(=O)[C@H](CC(C)C)NC(=O)[C@@H](N)CCCNC(=N)N)[C@@H](C)CC)C(=O)NCC(=O)N[C@@H](CCC(N)=O)C(=O)N[C@@H](CCCCN)C(=O)N[C@H](C(=O)N[C@@H](CCC(N)=O)C(=O)NCC(=O)N[C@@H](Cc1ccccc1)C(=O)N[C@H](C(=O)N1CCC[C@H]1C(=O)N[C@@H](CCCCN)C(=O)N[C@@H](CC(C)C)C(=O)N[C@@H](CCC(N)=O)C(=O)N1CCC[C@H]1C(=O)N[C@@H](CO)C(=O)N[C@@H](CCCCN)C(=O)N[C@@H](CCC(N)=O)C(=O)N[C@@H](CO)C(=O)O)C(C)C)[C@@H](C)CC", "assay": "inhibition zone", "test system": "ATCC 14028", "setting": "LB agar, overnight", "measurement": "lethal concentration", "result": "1.08 µM"}
{"SMILES": "N=C(N)NCCC[C@@H]1NC(=O)[C@H](CCCNC(=N)N)NC(=O)[C@H](CCCNC(=N)N)NC(=O)[C@H](CCCNC(=N)N)NC(=O)[C@H](Cc2c[nH]c3ccccc23)NC(=O)[C@H](CCCNC(=N)N)NC(=O)[C@H](CCCNC(=N)N)NC(=O)[C@@H](N)CCn2cc(nn2)C[C@@H](C(N)=O)NC1=O", "setting": "24 h, 37 °C", "measurement": "MIC", "result": "250 µg/mL"}
{"SMILES": "Cc1c2oc3c(C)ccc(C(=O)N[C@@H]4C(=O)N[C@H](C(C)C)C(=O)N5[C@H](C(=O)N(C)CC(=O)N(C)[C@@H](C(C)C)C(=O)O[C@@H]4C)[C@@H](O)C[C@@H]5C)c3nc-2c(C(=O)N[C@@H]2C(=O)N[C@H](C(C)C)C(=O)N3CC(=O)C[C@H]3C(=O)N(C)CC(=O)N(C)[C@@H](C)C(=O)O[C@@H]2CCl)c(N)c1=O", "assay": "broth microdilution", "test system": "ATCC 10708", "setting": "16 to 48 h", "measurement": "MIC", "result": "> 9.2 µg/mL"}
{"SMILES": "N=C(N)NCCC[C@@H]1NC(=O)[C@H](CCCNC(=N)N)NC(=O)[C@H](CCCNC(=N)N)NC(=O)[C@H](CCCNC(=N)N)NC(=O)[C@H](Cc2c[nH]c3ccccc23)NC(=O)[C@H](CCCNC(=N)N)NC(=O)[C@H](CCCNC(=N)N)NC(=O)[C@@H](N)CCCCn2cc(nn2)C[C@@H](C(N)=O)NC1=O", "setting": "24 h, 37 °C", "measurement": "MIC", "result": "125 µg/mL"}
{"SMILES": "Oc1c(Cl)cc(Cl)c2cccnc12", "assay": "microbial growth, agar dilution", "test system": "ATCC10708 CHOLERAESUIS", "measurement": "MIC", "result": "1200 µM"}
{"SMILES": "COc1c(CC=C(C)C)c(O)cc2c1-c1oc3c(CC=C(C)C)c(O)ccc3c1CO2", "assay": "microbial growth", "test system": "TYPHI", "measurement": "MIC", "result": "128 µg/mL"}
{"SMILES": "CC[C@H](C)[C@H](NC(=O)[C@H](CCCCN)NC(=O)[C@H](CCCCN)NC(=O)[C@H](CC(C)C)NC(=O)[C@H](CCCCN)NC(=O)[C@H](CCC(=O)O)NC(=O)[C@H](CCCCN)NC(=O)[C@@H](NC(=O)[C@H](CCCCN)NC(=O)[C@H](CC(N)=O)NC(=O)[C@H](CCCNC(=N)N)NC(=O)[C@H](Cc1ccccc1)NC(=O)[C@H](CCCCN)NC(=O)[C@H](CCCNC(=N)N)NC(=O)[C@H](CC(C)C)NC(=O)[C@H](CCCNC(=N)N)NC(=O)[C@H](CCCCN)NC(=O)[C@H](CCCNC(=N)N)NC(=O)[C@H](CC(C)C)NC(=O)CN)[C@@H](C)CC)C(=O)NCC(=O)N[C@@H](CCC(N)=O)C(=O)N[C@@H](CCCCN)C(=O)N[C@H](C(=O)N[C@@H](CCC(N)=O)C(=O)NCC(=O)N[C@@H](Cc1ccccc1)C(=O)N[C@H](C(=O)N1CCC[C@H]1C(=O)N[C@@H](CCCCN)C(=O)N[C@@H](CC(C)C)C(=O)N[C@@H](C)C(=O)N1CCC[C@H]1C(=O)N[C@@H](CCCNC(=N)N)C(=O)N[C@H](C(=O)N[C@@H](CC(=O)O)C(=O)N[C@@H](Cc1ccc(O)cc1)C(=O)O)[C@@H](C)O)C(C)C)[C@@H](C)CC", "assay": "inhibition zone", "test system": "ATCC 14028", "setting": "LB agar, overnight", "measurement": "lethal concentration", "result": "1.21 µM"}
{"SMILES": "CC(C)=CCc1cc2c(cc1O)OC[C@H]1c3ccc(O)c(CC=C(C)C)c3O[C@@H]21", "assay": "microbial growth", "test system": "TYPHI", "measurement": "MIC", "result": "128 µg/mL"}
{"SMILES": "NCC(=O)NCC(=O)N[C@@H](Cc1c[nH]cn1)C(=O)O", "measurement": "MIC", "result": "> 476 µM"}
{"SMILES": "CC(C)=CCc1c(O)ccc2c1O[C@H]1c3cc4c(cc3OC[C@@H]21)OC(C)(C)C=C4", "assay": "microbial growth", "test system": "TYPHI", "measurement": "MIC", "result": "128 µg/mL"}
{"SMILES": "CC(=O)[O-].O.O.O.O.[Mn+2].[O-]c1ccc(Br)cc1C=NCCN1CCOCC1", "test system": "serovar Typhi", "setting": "20 µL of 100 µM per disc", "measurement": "inhibition zone diameter", "result": "16 mm"}
{"SMILES": "COc1ccc2c(oc3c4ccc(O)cc4oc(=O)c23)c1CC=C(C)C", "assay": "microbial growth", "test system": "TYPHI", "measurement": "MIC", "result": "128 µg/mL"}
{"SMILES": "Cc1c2oc3c(C)ccc(C(=O)N[C@@H]4C(=O)N[C@H](C(C)C)C(=O)N5[C@@H](C)CC[C@H]5C(=O)N(C)CC(=O)N(C)[C@@H](C(C)C)C(=O)O[C@@H]4C)c3nc-2c(C(=O)N[C@@H]2C(=O)N[C@H](C(C)C)C(=O)N3[C@@H](C)CC[C@H]3C(=O)N(C)CC(=O)N(C)[C@@H](C(C)C)C(=O)O[C@@H]2C)c(N)c1=O", "assay": "broth microdilution", "test system": "ATCC 10708", "setting": "16 to 48 h", "measurement": "MIC", "result": "> 9.36 µg/mL"}
{"SMILES": "COc1ccc2c(c1CC=C(C)C)O[C@H]1c3cc4c(cc3OC[C@@]21O)OC(C)(C)C=C4", "assay": "microbial growth", "test system": "TYPHI", "measurement": "MIC", "result": "128 µg/mL"}
{"SMILES": "CO[C@H]1O[C@H](COC(c2ccccc2)(c2ccccc2)c2ccccc2)[C@@H](OS(=O)(=O)c2ccccc2)[C@H](OS(=O)(=O)c2ccccc2)[C@H]1OS(=O)(=O)c1ccccc1", "test system": "serovar Typhi", "setting": "concentration not given", "measurement": "inhibition zone diameter", "result": "14 ± 0.5 mm"}
